Measured values collected from several papers.
Each numbered part is a random draw from the data of one study; scales do not carry over between parts.

Study 1 — method: protein binding microarray; molecule type: double-stranded DNA, one strand shown; matrix: in vitro; concentration: not given; relative to: not given; reading: higher = stronger binding
Target: Histone acetyltransferase KAT6A, both winged helices, GST fusion (KAT6A, Homo sapiens, UniProt Q92794, residues 1-181)
Notes: 8-mer, flanks averaged, mean of 2 arrays, mostly near background
Construct (chain): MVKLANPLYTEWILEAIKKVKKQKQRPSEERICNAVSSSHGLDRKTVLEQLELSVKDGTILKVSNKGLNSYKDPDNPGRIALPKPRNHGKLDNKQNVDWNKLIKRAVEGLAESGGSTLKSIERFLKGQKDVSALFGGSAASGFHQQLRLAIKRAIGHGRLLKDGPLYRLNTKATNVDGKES
Strand | E-score
TGACACAA | -0.0998
AGAGATTC | -0.133
TAGACATA | -0.0419
ACCGCTGG | 0.0932
AGCCTCGA | -0.166
AATTTCAG | -0.0512
CTGGCCAC | -0.209
GGGGGGTA | -0.0665
ACCGTAAT | 0.0541
AATACATC | 0.0743
CCCTCCGG | 0.0722
CACACCTC | 0.0108
ATCCTGCC | -0.0129
GGCCGTCA | 0.205
GGACCAAA | -0.0989
CGTGGGCC | 0.0741

Study 2 — method: protein-binding microarray; molecule type: double-stranded DNA, one strand shown; matrix: in vitro; concentration: 2200 nM top; notes: 60-bp whole probe; together with: salmon DNA 0.4 mg/ml; relative to: random background probes; reading: higher = stronger binding; constant ends, left off below: GCCTAGCAC … GTCTTGATTCGCTTGACGCTGCTG
Target: Interferon regulatory factor 7, full length, phosphomimetic (IRF7, Homo sapiens, UniProt Q92985, residues 1-503, S471D/S472D/S475D/S476D/S477D/S483D/S484D/S487D)
Target sequence (chain): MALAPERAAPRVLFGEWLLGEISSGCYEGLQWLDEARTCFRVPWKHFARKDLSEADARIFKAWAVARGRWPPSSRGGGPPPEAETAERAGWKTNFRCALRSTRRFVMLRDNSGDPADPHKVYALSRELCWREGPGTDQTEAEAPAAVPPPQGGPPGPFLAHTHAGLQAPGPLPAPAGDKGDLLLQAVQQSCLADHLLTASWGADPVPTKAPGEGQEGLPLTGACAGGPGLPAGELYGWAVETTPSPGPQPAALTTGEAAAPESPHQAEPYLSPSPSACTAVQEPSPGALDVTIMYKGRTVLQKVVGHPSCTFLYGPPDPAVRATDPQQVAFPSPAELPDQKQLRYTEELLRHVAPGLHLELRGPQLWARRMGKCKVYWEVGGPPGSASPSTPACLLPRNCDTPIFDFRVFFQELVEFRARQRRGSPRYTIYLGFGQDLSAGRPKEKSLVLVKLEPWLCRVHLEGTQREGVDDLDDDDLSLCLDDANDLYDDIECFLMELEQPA
Strand | fitted relative affinity [z-score]
GACGGTTTCGTTTTCGGGACGTGCTAG | 12.5
TCATTTTTAGATTTTTTACTGTGCTAG | 1.24
GAAGGACTGCTTATCCTGACGTGCTAG | 0.163
TCATGTTTCTACTGTCTGACTGTGCTA | 2.01
AGCAGTTGGACCTCTCAGCCAGTGCTA | -0.657
GACGGTTTCTTACTGCTGACGTGCTAG | 1.66
AACGGTATCGGGACTGGGGACGTGCTA | -0.29
TCACATCTGTCATGTTTGACTGTGCTA | 1.35
TTAGATTTCGGGTTTCGATTCGTGCTA | 9.9
ATAGGTCTCGGTTTCGGTTAGTGCTAG | 7.35
TTAGGTATCGACTCTCGGTTAGTGCTA | 0.789
TTAAAACTGAGTCTCGATTAGTGCTAG | -0.421
GACGGTTTCGGTTTCGGGATGTGCTAG | 15.4
TTAGGACTGGGCTATCGGTTAGTGCTA | -0.817
TCATCTTTAACATATTCTACTGTGCTA | 0.96
GACGGTATCGGATATCGGGACGTGCTA | 0.0462
TTAGATTCCAGACTGGATTAGTGCTAG | 0.0193
GACGGACTGCTTATCCTGTCGTGCTAG | 0.951
TTAGAACTGGGGCCTGGATTAGTGCTA | -0.672

Study 3 — method: RNA Bind-n-Seq; molecule type: RNA; matrix: in vitro; concentration: 365 nM; relative to: no-protein control; reading: higher = stronger binding
Target: RNA binding protein fox-1 homolog 2, RRM domain, GST-SBP tag (RBFOX2, Homo sapiens, UniProt O43251-10, residues 100-194)
Notes: natural RNA segment, single round, ends assumed
Constant ends, left off below: GGGAGUUCUACAGUCCGACGAUC … UGGAAUUCUCGGGUGCCAA
Construct (chain): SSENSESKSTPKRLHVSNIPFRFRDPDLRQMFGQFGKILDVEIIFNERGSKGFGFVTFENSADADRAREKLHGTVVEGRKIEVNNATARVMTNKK
Strand | RBNS enrichment (R)
UUCCUGUAGCUGUCAAGUGGUCUCCAGCAGUUCACUCCAUCAUGUUGCACAGUACUAAGAGACUCAUUCAGAAAUCAAGACUUUAGAUGUAAUAUGUUGAUUAAAAUGUA | 0.322
AAAUUGUGGUUUUAGAAACCAACUCUUGAUAGUUGUACUGUGAUUAUAAAAAACAAUUGUUAAAUAAUAUAAUGGAAGUUUGUGAUAAUUCCUUAGCAGUAAUGUAAAAU | 1.14
AAUGAACUCUUGCCCUGGAAUAAUCUUGACAAUUAAAACUGAUAUGUUUACUUUUUUUGUAUUGAUCACUUUUUUGCACUCCUUCUUUGUUUUCAAUAUUGUAUUCAGCC | 0.847
CAAGUAACCAAGCUGUUGACUUUCUUACUACUUGCAGUAGCCUGUCCCCAACUUUUCCAUCCAGUGCUUAACCUAAAAAACUCCUUAACUCUGCCUUGACCUGAGGAAGA | 1.23
ACCAAAUGCAGACAAAUGGGAGAACCAGUUCCCCAGCUUAUGUUAGCAUAGUCAACAGCGAGCAUAAAGACUUUGUCACUUGGAGCGUUACCAGCAGAGUAAAUGUGGCC | 0.448
CAUGCAAAAGGGAACGGGUGCACCAGAGACCCCUGUUUUGGCUGACAGACCAUAUGUCCCACCAGCUGGGGAAUCUGACAAGAGGACAUAGGUGGCACUCUUUUUUUAAA | 0.767
GUAGACAAAAUGGAUAUAAAUGAAAAUUACCAUGUUGUAAAACCUUGAAAAUCAGAUUCUAACUGGAUUUGUAUGCAACUAAGUAUUUUUCUGAACACCUAUGCAGGUCU | 0.651
AAAAAAAAUUCCACUAGACCACCAUCCCUUUUGUUUUGGGAUUUUUUUUCAACCUUUUCCAUUUGCUGAGUGAAGAUGGUCACUAACUCUAUGCUGCAAUAACGGGAGAG | 0.507

Study 4 — method: RNAcompete; molecule type: RNA; matrix: in vitro; concentration: 20 nM; notes: 7-mer, probes averaged, single round; relative to: mean of 7-mers; reading: higher = stronger binding
Target: PABPC1L2, full length, GST fusion (mouse, UniProt A0ABA7IW68)
Construct (chain): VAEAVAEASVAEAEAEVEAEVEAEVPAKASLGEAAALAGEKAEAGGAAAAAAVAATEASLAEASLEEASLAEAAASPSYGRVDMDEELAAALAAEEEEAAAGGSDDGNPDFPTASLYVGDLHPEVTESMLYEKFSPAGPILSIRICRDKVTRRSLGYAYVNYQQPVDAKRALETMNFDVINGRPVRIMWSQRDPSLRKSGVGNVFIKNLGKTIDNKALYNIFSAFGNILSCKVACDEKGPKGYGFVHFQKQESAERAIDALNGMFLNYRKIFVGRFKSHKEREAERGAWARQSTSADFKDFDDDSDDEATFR
Strand | 7-mer Z-score
CAGUUUG | -0.44
CAUGACA | 0.137
AUUCCCU | -0.331
AUCCGUA | -0.222
AUAGCCU | -0.0627
UGUCACC | -0.122
ACCUGGG | 0.106
GCAUGUG | -0.0899
UUGAGCG | -0.22
GAGAAAC | 0.439
CCAAUAU | -0.2
GUUAGUU | -0.3
CAUAAUU | -0.182
UCCGCCG | -0.507
UCCAUUA | -0.315
UUGAUGG | -0.191
UGACUAA | 0.0841
GCCGUUG | -0.246
GAUCGCG | -0.275
AUGAAGG | 0.122
AUGAUGU | -0.186
GAGGAGC | 0.0297
ACUACUU | -0.0808

Study 5 — method: RNA Bind-n-Seq; molecule type: RNA; matrix: in vitro; concentration: 1 µM; notes: whole 134-nt RNA, ends assumed; together with: 150 mM KCl; relative to: input library; reading: higher = stronger binding
Target: Ras GTPase-activating protein-binding protein 1, RRM domain (G3BP1, Homo sapiens, UniProt Q13283)
UniProt Q13283, sequence (whole entry, looked up): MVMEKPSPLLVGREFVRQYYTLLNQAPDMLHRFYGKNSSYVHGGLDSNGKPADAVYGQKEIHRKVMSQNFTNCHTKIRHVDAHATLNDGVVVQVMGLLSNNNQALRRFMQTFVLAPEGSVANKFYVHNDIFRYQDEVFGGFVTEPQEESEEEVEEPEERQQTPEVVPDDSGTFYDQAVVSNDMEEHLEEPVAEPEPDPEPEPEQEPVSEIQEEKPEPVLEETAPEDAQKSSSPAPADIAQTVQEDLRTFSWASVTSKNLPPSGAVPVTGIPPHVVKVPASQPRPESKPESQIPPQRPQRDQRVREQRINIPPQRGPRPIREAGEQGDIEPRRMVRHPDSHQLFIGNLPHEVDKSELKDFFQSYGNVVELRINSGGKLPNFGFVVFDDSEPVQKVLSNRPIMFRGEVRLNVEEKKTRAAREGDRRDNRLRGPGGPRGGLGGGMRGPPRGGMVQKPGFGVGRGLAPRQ
Constant ends, left off below: GGGAGUUCUACAGUCCGACGAUC … UGGAAUUCUCGGGUGUCAAGG
Strand | log2 enrichment
ACCAUGCAGGUGGGCAUAUUUGGGAAGUGGGGCAAGGGGGGGAUAGGGAGGGGGGUAACACUUUGGGAACAGGUGGUCCCAGGUCGUUUC | -0.418
AGUCCUGUGCUACACAUCGUAUGUACCGAAUCGGGUUUUUGGGAAAGGGAAAAAGGGAAAGUAUUAUGUUACGCCGUUCGGAUCUGCACU | 0.242
UCCUGUGCUACACAUCGUAUGUACCGAAUCGGGGUGGGGUUUUUUUGGGGAAAAAGGGGAAAGUAUUAUGUUACGCCGUUCGGAUCUGCA | 0.768
ACCAUGCAGGUGGGCAUCUUUGGGAAGUGGUGCAAGGGGGGGAUAGGGAGGGGGGUAACACUUUGGGAACAGGUGGUCCCAGGUCGUUUC | -0.515
AAGUCCUGUGCUACACAUCGUAUGUACCGAAUCGGGUUUGGGAAAGGGAAAAAGGGAAAGUAUUAUGUUACGCCGUUCGGAUCUGCACUU | 0.65
UCAAGUCCUGUGCUACACAUCGUAUGUACCGAAUCGGAGGAAAAAGGUUUUUGGAAAGUAUUAUGUUACGCCGUUCGGAUCUGCACUUCC | -0.164
AGUCCUGUGCUACACAUCGUAUGUACCGAAUCAAACCCCCAAAUUUUUAAACCCAAAAAAGUAUUAUGUUACGCCGUUCGGAUCUGCACU | -0.394
CACAGACAACACGCACCCACACAGACACGGAGGGAAGGGGUUGGGAUGGGGACAGGGUGCACAGCAGGGCGGGGUAGGACCCCAGCCCCU | -0.0077
UAACUUUAGAGGUGGAUCUGAUGGAUAUGGCAGUGGACGUGGAUUUGGGGAUGGCUAUAAUGGGUAUGGAGGAGGACCUGGAGGUGGCAA | -0.733
